Measurements collected from several papers.
Each line is one published result; not all experiments were run side by side. Values joined by “and” are separate records of one study, mostly repeats; a detail may differ. ± gives the spread as reported.

CC(C)C[C@H](NC(=O)[C@H](CO)NC(=O)[C@H](CCCNC(=N)N)NC(=O)[C@H](CC(=O)O)NC(=O)[C@H](CCC(=O)O)NC(=O)[C@H](C)NC(=O)[C@@H]1CCCN1C(=O)[C@H](C)NC(=O)[C@H](CCC(=O)O)NC(=O)[C@@H]1CCCN1C(=O)[C@@H]1CCCN1)C(N)=O  DOPAC level reduction (dopamine system; rhesus monkey, contralateral putamen; intranasal, dose not given, repeated dose escalation; baseline: vehicle): 59%
CC(C)(Sc1ccncc1-c1ccc(C#N)c2ccccc12)C(=O)OC1OC(C(=O)O)C(O)C(O)C1O (stereo not drawn)  fraction excreted unchanged (urine; oral, 15 mg, 72 h, moderate renal impairment; baseline: dose): 13.1%
COC[C@@H](CC(C)C)NC(=O)c1ccc(CO)c(C)c1  metabolite peak area (LC-MS; human liver microsomes; 10 µM of parent drug, 10 min, pH 7.4, with: NADPH; baseline: parent drug at time zero): 3.9%
O=C([O-])CN1CCN(CC(=O)[O-])CCN(CC(=O)NCC2CCC(C(=O)NC(Cc3ccc4ccccc4c3)C(=O)NCCCCC(NC(=O)NC(CCC(=O)O)C(=O)O)C(=O)O)CC2)CCN(CC(=O)[O-])CC1.[44Sc+3] (stereo not drawn)  absorbed dose (PET/CT, OLINDA/EXM; human patients, kidneys; mean of patients): 0.354 mSv/MBq
O=C([O-])CN1CCN(CC(=O)[O-])CCN(CC(=O)NC[C@H]2CC[C@H](C(=O)N[C@H](Cc3cnc4ccccc4c3)C(=O)NCCCC[C@H](NC(=O)N[C@@H](CCC(=O)O)C(=O)O)C(=O)O)CC2)CCN(CC(=O)[O-])CC1.[64Cu+2]  absorbed dose (PET/CT dosimetry OLINDA/EXM; healthy volunteers, thymus; up to 24 h post-injection): 0.0111 mGy/MBq
COC(=O)c1ccc(CCc2cc3cc4nc(c(OC)c5[nH]c(cc6nc(cc2[nH]3)CC6(C)C)cc5CCCNC(=O)OC(C)(C)C)C(=O)C4(C)C)cc1  Qy/B absorption intensity ratio (DMF; room temperature): 0.41
C[C@H](CC[C@@H](O[C@@H]1O[C@H](CO[C@@H]2O[C@H](CO)[C@@H](O)[C@H](O)[C@H]2O)[C@@H](O)[C@H](O)[C@H]1O[C@@H]1O[C@H](CO)[C@@H](O)[C@H](O)[C@H]1O)C(C)(C)O)[C@H]1CC[C@@]2(C)[C@@H]3CC=C4[C@@H](CC[C@H](O[C@@H]5O[C@H](CO[C@@H]6O[C@H](CO)[C@@H](O)[C@H](O)[C@H]6O)[C@@H](O)[C@H](O)[C@H]5O)C4(C)C)[C@]3(C)[C@H](O)C[C@]12C  micelle diameter (dynamic light scattering; water): ~160 nm and 160 nm
COC(=O)CCC(=O)Oc1ccc(/C=C/C(=O)CC(=O)/C=C/c2ccc(O)c(OC)c2)cc1OC  cumulative release (dialysis release; PBS with 10% Tween-80; 24 h, 37 °C): 89.5%
Cc1ccc(/N=N/c2c(O)ccc3ccccc23)c(C)c1  measured concentration (extracted rat blood QC samples; 0.5 µg/L, 8 h, room temperature, short-term stability): 0.502 µg/L
NS(=O)(=O)c1ccc(-n2nc(C(F)(F)F)c(O)c2-c2ccc(F)cc2F)cc1  metabolite formation rate (substrate; male Wistar rat liver microsomes; 20 µM, pH 7.4, mean of 0-90 and 0-60 min): 3.2 pmol/min/mg
CCCCCCCCCCCCCCCC(=O)N[C@@H](CCCCN)C(=O)N[C@H](C(=O)N[C@H](C(=O)N[C@@H](CCCCN)C(=O)N[C@@H](CO)C(=O)O)[C@@H](C)O)[C@@H](C)O  amount retained in epidermis (LC-MS/MS; hairless mouse, skin, Franz cell; 50 µg/cm^2 applied, 24 h): 2.8 ± 0.5 µg/cm²
O=C(OCc1cccc(O)c1O)c1ccc(O)c(CO)c1  PBMC oxidative burst (mice; intraperitoneal, 5 mg/kg/day, 14 days, with: fMLP PMA or LPS; baseline: vehicle): no effect
C#CCOc1ccc(/C=C2\SC(=O)N(CC(=O)NCc3ccccc3)C2=O)cc1  Kirkwood-Buff integral G2,3 (inverse Kirkwood-Buff integrals; binary solvent mixture; 298.15 K, mole fraction x1 0.35): -381 cm³/mol
O=C(Nc1nccs1)C(c1cc(F)ccc1O)N1Cc2ccccc2C1=O (stereo not drawn)  recovery (mouse plasma; 1500 ng/mL, time not given, -30 °C, 3 freeze-thaw cycles, high QC): 100 ± 1.1%
[11CH3]c1ccc2nc(C3CCC3)n(-c3ccc4[nH]ncc4c3)c2n1  absorbed dose (extrapolated from mouse; human male, stomach wall): 5.3 µSv/MBq
CC(C)[C@H](NC(=O)[C@@H]1CCCN1C(=O)[C@H](CCCNC(=N)N)NC(=O)[C@H](CS)NC(=O)[C@H](Cc1c[nH]c2ccccc12)NC(=O)[C@H](CCCNC(=N)N)NC(=O)[C@@H](Cc1ccccc1)NC(=O)[C@H](Cc1c[nH]cn1)NC(=O)[C@H](CCC(=O)O)NC(=O)[C@H](CS)NC(=O)[C@H](CS)NC(=O)CNC(=O)[C@@H]1CC(=O)N[C@@H](CCCNC(=N)N)C(=O)NCC(=O)N[C@@H](CC(=O)O)C(=O)N[C@H](Cc2ccc(O)cc2)C(=O)N1)C(N)=O [technetium-99m labelled]  tumour to tissue ratio (C57 mouse, female, B16/F1 melanoma; intravenous, 0.037 MBq, 4 h; baseline: tumour over blood): 11.2
CC(C)(Sc1cc[n+]([O-])cc1-c1ccc(C#N)c2ccccc12)C(=O)OC1OC(C(=O)O)C(O)C(O)C1O (stereo not drawn)  renal clearance ratio (0-72 h) (adult men, urine; oral, 15 mg verinurad, severe renal impairment; baseline: impaired over normal renal function): 11.8%
CCCC[C@H](NC(C)=O)C(=O)N[C@H]1CC(=O)NCCCC[C@@H](C(=O)N[C@@H](C(=O)N2CCC[C@@H]2C(N)=O)C(C)C)NC(=O)[C@H](Cc2c[nH]c3ccccc23)NC(=O)[C@H](CCCN=C(N)N)NC(=O)[C@@H](Cc2ccc3ccccc3c2)NC(=O)[C@@H]2CCCN2C1=O  Tmax (Beagle dog, both sexes, plasma; subcutaneous, once daily, 0.75 mg/kg, day 1): 0.9 ± 0.3 h
CCC(=O)N[C@@H](C)C(=O)OCC(=O)N[C@@H](C)C(=O)O  depolymerization half-life (water; pH 6, 37 °C): 432 h
Cn1c(=O)oc2ccc(-c3ccc(CC(C#N)NC(=O)C4CNCCCO4)c(F)c3)cc21 (stereo not drawn)  subjects with TEAE (refers to: blood triglycerides increased; human; 80 mg single dose, fasted): 0%
CCCC[C@H](NC(=O)CNC(=O)CNC(=O)CN1CCN(CC(=O)O)CCN(CC(=O)O)CCN(CC(=O)O)CC1)C(=O)N[C@H]1CC(=O)NCCCC[C@@H](C(N)=O)NC(=O)[C@H](Cc2c[nH]c3ccccc23)NC(=O)[C@H](CCCNC(=N)N)NC(=O)[C@@H](Cc2ccccc2)NC(=O)[C@H](Cc2c[nH]cn2)NC1=O [copper-64 labelled]  uptake ratio (female C57 mouse, B16/F1 melanoma; intravenous, 0.037 MBq, 2 h; baseline: tumour over kidneys): 0.56
N=C(N)NCCC[C@@H]1NC(=O)[C@H](Cc2c[nH]c3ccccc23)NC(=O)[C@@H](CC2CCCCC2)NC(=O)[C@@H]2CCCN2C(=O)[C@@H](NC(=O)CCc2ccccc2)CCCNC1=O  apparent central volume (V1/F) (C57BL/6J mice, brain; subcutaneous, 1 mg/kg, two-compartment model): 0.08 µg/(ng/g)
COc1cc(NC(C)=O)c2c(c1O)-c1c(OC)c(OC)cc3c1C(C2)N(C)CC3 (stereo not drawn)  remaining compound (rat kidney homogenate; 5 µg/mL, 4 h, room temperature, short-term storage): 100 ± 1.2%
OC[C@H]1O[C@@H](Oc2c[nH]c3ccccc23)[C@H](O)[C@@H](O)[C@@H]1O  methotrexate elimination (inhibitor; rat, serum; oral, 20.0 and 40.0 mg/kg, with: oral methotrexate 5.0 mg/kg): inhibited
Oc1ccc2ccccc2c1/N=N/c1ccccc1  measured concentration (extracted rat blood QC samples; 0.2 µg/L, 12 h, room temperature, short-term stability): 0.216 µg/L
[64Cu+2].c1cnc(CNCc2ccc(CN3CCCN4CCNCCCN(CC4)CC3)cc2)nc1  tissue uptake (CXCR4; NOD/SCID mouse, U87 and U87-stb-CXCR4 xenografts, kidney; iv, 120 min, ex vivo): 34.7 ± 9.75 %ID/g
CC(C)[C@H](NC(=O)CNC(=O)[C@H](CCC(N)=O)NC(=O)[C@H](C)N)C(=O)O  time with quantifiable concentration (human; 30 mg/kg): ≤ 1 h
CC(C)(O)c1ncc([S@](N)(=O)=NC(=O)Nc2c3c(cc4c2CCC4)CCC3)s1  lag time (healthy human volunteers, plasma; oral, 50 mg twice daily, fed, enteric-coated tablet): 0.25 h
C=CC(=O)Nc1cc(Nc2nccc(-c3cn(C)c4ccccc34)n2)c(OC)cc1N(C)CCNC  median trough concentration (UHPLC-MS/MS; human, NSCLC patients, plasma; oral, 80 mg daily, steady state, at least 14 d treatment): 18 ng/mL
CCn1c(=O)n(CCO)c(=O)c2c1nc(/C=C/c1ccc(OC)c(OC)c1)n2C  metabolite to parent AUCinf ratio (healthy humans, plasma; oral, 40 mg, with: rifampin 600 mg/day): 0.0785
C[C@H](Oc1cc(-c2cnn(C3CCN(CC[18F])CC3)c2)cnc1N)c1c(Cl)ccc(F)c1Cl  tracer uptake (PET imaging; nude mouse, brain; iv, 30 min post injection): 2.6 ± 0.9 %ID/cc
CC(C)c1cnc(-c2cc(Cl)ccc2F)cc1Nc1ccncc1C(=O)NC(CO)CO  patients with related SAE (refers to: pyrexia; human patients; oral, dose not given, grade 3): 0%
Polymyxin B  fraction in filtrate (ultrafiltration ELISA; human citrate plasma; 1 µg/mL, 30 kDa MMCO filter; baseline: positive control): 7%
CCCC[C@@H]1NC(=O)[C@@H](NC(=O)[C@H](CCC(=O)O)NC(=O)CNC(=O)CN2CCN(CC(=O)O)CCN(CC(=O)O)CCN(CC(=O)O)CC2)CCCCNC(=O)C[C@@H](C(N)=O)NC(=O)[C@H](C(C)C)NC(=O)[C@@H]2CCCN2C(=O)[C@H](CCCNC(=N)N)NC(=O)CNC(=O)[C@H](Cc2c[nH]c3ccccc23)NC(=O)[C@H](CCCNC(=N)N)NC(=O)[C@@H](Cc2ccccc2)NC(=O)[C@H](Cc2c[nH]cn2)NC(=O)[C@H](CCC(=O)O)NC1=O [gallium-67 labelled]  tumour to lung ratio (C57 mice with B16/F1 melanoma; intravenous, 0.037 MBq/mouse, 0.5 h; baseline: tumour over lung): 5.97
Cc1ccc(-c2ccc(-c3cc4sccc4o3)cn2)nc1  fluorescence lifetime (TCSPC; DMF): 1.34 ns
CC/C=C\C/C=C\C/C=C\C/C=C\C/C=C\CCCCOC(CC)C(=O)O (stereo not drawn)  fraction absorbed via portal vein (Wistar rat, male, portal vein blood, mesenteric lymph; oral, 100 mg/kg, portal plasma flow 522 mL/h, lymph flow 0.5 mL/h): > 99%
CC(C)(C)NCC(SS(=O)(=O)O)c1ccccc1 (stereo not drawn)  metabolic rate constant (CYP-dependent metabolism; CD1 mouse, female, liver microsomes; 4 µM, pH 7.4, with: with minus without NADPH): 0.1 h⁻¹
CCCC[C@H](NC(=O)CN1CCC(NC(=O)CN2CCN(CC(=O)O)CCN(CC(=O)O)CCN(CC(=O)O)CC2)CC1)C(=O)N[C@H]1CC(=O)NCCCC[C@@H](C(N)=O)NC(=O)[C@H](Cc2c[nH]c3ccccc23)NC(=O)[C@H](CCCNC(=N)N)NC(=O)[C@@H](Cc2ccccc2)NC(=O)[C@H](Cc2c[nH]cn2)NC1=O [gallium-68 labelled]  uptake ratio (male C57BL/6J mice, B16-F10 tumours, tumour, bone; intravenous, 1 h, blocking study, with: 100 µg non-radioactive Ga-peptide; baseline: tumour over bone): 2.4 ± 1
O=C(N[c-]1cccc1)OCc1ccc(F)cc1.[Fe+2].c1cc[cH-]c1  E1/2 (cyclic and differential pulse voltammetry; acetonitrile; 23 °C; baseline: ferrocene/ferrocenium): -76 mV
C=C(c1ccc(C(=O)O)c(F)c1)c1cc2c(cc1C)C(C)(C)C=CC2(C)C  blood cholesterol (Sprague-Dawley rat, male; oral, 100 mg/kg, 12 h, sesame oil vehicle): 72 ± 11.9 mg/dL
C=C(C)C(=O)Nc1ccc(-c2c(-c3ccc(Oc4nccc(C)n4)cc3)c3c(N)ncnc3n2C)cc1  bioavailability (beagle dog, plasma; oral): 45%
O=C1c2sc(-c3ccc(N4CCC(CO)CC4)nc3F)nc2CCN1c1cccnc1  peak brain uptake (PET imaging; rhesus monkey, whole brain; intravenous bolus): 1 % injected dose
COC(=O)C1C(c2nc3cc(OC)ccc3[nH]2)=Cc2cc3c(cc2C1c1cc(OC)c(OC)c(OC)c1)OCO3 (stereo not drawn)  CC50 (Alamar Blue; splenocytes, mouse, uninfected ex vivo splenic explants; 48 h): > 100 µM
NC12CNCCNCC(NCc3ccc(CNC(=O)CCCC(=O)NCc4ccc(-c5nncnn5)cc4)cc3)(CNCCNC1)CNCCNC2.[64Cu+2]  mean absorbed dose (OLINDA dosimetry; adrenals; 24 h pretargeting interval, with: huA33-TCO pretargeting): 0.0374 rad/mCi
N=C(N)NCCC[C@H](NC(=O)[C@@H]1CCCN1C(=O)[C@H](Cc1ccccc1)NC(=O)[C@@H]1CCCN1C(=O)[C@H](Cc1c[nH]cn1)NC(=O)[C@@H](N)Cc1ccccc1)C(=O)O  elimination rate constant (Sprague-Dawley rat male, plasma; intravenous, 10 mg/kg): 0.11 ± 0.03 min⁻¹

Excerpt of the above:
C[C@H](CC[C@@H](O[C@@H]1O[C@H](CO[C@@H]2O[C@H](CO)[C@@H](O)[C@H](O)[C@H]2O)[C@@H](O)[C@H](O)[C@H]1O[C@@H]1O[C@H](CO)[C@@H](O)[C@H](O)[C@H]1O)C(C)(C)O)[C@H]1CC[C@@]2(C)[C@@H]3CC=C4[C@@H](CC[C@H](O[C@@H]5O[C@H](CO[C@@H]6O[C@H](CO)[C@@H](O)[C@H](O)[C@H]6O)[C@@H](O)[C@H](O)[C@H]5O)C4(C)C)[C@]3(C)[C@H](O)C[C@]12C  micelle diameter (dynamic light scattering; water): ~160 nm and 160 nm
COC(=O)CCC(=O)Oc1ccc(/C=C/C(=O)CC(=O)/C=C/c2ccc(O)c(OC)c2)cc1OC  cumulative release (dialysis release; PBS with 10% Tween-80; 24 h, 37 °C): 89.5%
Cc1ccc(/N=N/c2c(O)ccc3ccccc23)c(C)c1  measured concentration (extracted rat blood QC samples; 0.5 µg/L, 8 h, room temperature, short-term stability): 0.502 µg/L
